Results pooled from the literature.
Each numbered part is a random draw from the data of one study; scales do not carry over between parts.

Study 1
Target: Transcriptional repressor CTCF (CTCF, Homo sapiens, UniProt P49711, residues 1-727, full length assumed)
Chain of UniProt P49711 (whole entry, looked up): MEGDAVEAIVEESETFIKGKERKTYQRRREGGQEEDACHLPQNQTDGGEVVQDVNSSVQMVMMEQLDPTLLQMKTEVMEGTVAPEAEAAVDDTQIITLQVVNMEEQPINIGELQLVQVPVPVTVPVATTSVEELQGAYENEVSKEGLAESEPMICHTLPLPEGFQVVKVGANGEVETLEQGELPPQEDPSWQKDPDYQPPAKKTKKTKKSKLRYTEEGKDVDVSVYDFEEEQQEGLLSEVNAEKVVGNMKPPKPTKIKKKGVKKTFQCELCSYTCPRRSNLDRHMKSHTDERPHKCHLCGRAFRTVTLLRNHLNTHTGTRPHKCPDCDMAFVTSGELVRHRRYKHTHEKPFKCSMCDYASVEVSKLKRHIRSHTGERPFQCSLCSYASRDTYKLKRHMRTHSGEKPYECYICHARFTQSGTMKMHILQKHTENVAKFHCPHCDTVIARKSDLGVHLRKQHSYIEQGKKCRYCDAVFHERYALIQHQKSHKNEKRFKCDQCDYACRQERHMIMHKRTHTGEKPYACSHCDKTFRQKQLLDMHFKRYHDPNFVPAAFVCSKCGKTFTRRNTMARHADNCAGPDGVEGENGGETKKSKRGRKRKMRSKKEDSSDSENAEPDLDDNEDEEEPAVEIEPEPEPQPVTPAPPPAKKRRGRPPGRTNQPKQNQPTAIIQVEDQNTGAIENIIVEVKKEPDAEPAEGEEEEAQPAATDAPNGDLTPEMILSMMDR
Method: protein-binding microarray
Molecule type: double-stranded DNA, one strand shown
Matrix: in vitro
Concentration: not given
Notes: k-mer, scored over probes, only values ≥0.25
Reading: higher = stronger binding
| Sequence | E-score |
| --- | --- |
| ATATCGCG | 0.262 |
| CTATTATA | 0.261 |
| AATACCTA | 0.278 |
| ATTTACGC | 0.312 |
| CATAAAAA | 0.278 |
| ACAAAACA | 0.276 |

Study 2
Target: Phosphate system positive regulatory protein PHO4, full length, GST-tagged (PHO4, Saccharomyces cerevisiae, UniProt P07270, residues 1-312)
Method: competition protein-binding microarray
Molecule type: double-stranded DNA, one strand shown
Matrix: in vitro
Concentration: 2 µM
Notes: whole 60-bp probe, lowest competitor level
Added: Cbf1 competitor, 0.05 µM
Reading: higher = stronger binding
Target sequence (chain): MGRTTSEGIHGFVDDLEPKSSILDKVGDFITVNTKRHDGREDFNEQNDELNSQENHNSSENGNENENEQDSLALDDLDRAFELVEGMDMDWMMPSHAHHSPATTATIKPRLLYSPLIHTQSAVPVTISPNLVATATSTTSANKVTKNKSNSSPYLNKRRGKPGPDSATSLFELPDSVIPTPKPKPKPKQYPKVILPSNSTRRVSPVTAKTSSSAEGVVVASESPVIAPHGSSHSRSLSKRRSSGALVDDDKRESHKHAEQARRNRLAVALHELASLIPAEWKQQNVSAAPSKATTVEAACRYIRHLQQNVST
| Sequence | fluorescence intensity [a.u.] |
| --- | --- |
| TGCCCTTGCGCCTGGCACGTTTCAGCTTCTTTCTAAGTCTTGATTCGCTTGACGCTGCTG | 10200 |
| GCTGCTTTACAAGAACACATGAAAAATCCAGAAGTAGTCTTGATTCGCTTGACGCTGCTG | 4520 |
| CGGGGTTAAGTTTGTGCGGTGGGTGGCTTGCAGCAGGTCTTGATTCGCTTGACGCTGCTG | 4970 |
| CTTTCCCGATCTTTTCACGTGTCCTTAGCACATTTGGTCTTGATTCGCTTGACGCTGCTG | 13600 |

Study 3
Target: Interferon regulatory factor 3, full length, phosphomimetic (IRF3, Homo sapiens, UniProt Q14653, residues 1-427, S386D/S396D/S398D/S402D/T404D/S405D)
Method: protein-binding microarray
Molecule type: double-stranded DNA, one strand shown
Matrix: in vitro
Concentration: 2540 nM top
Notes: 60-bp whole probe
Added: salmon DNA 0.4 mg/ml
Baseline: random background probes
Reading: higher = stronger binding
Constant ends, left off below: GCCTAGCAC … GTCTTGATTCGCTTGACGCTGCTG
Construct (chain): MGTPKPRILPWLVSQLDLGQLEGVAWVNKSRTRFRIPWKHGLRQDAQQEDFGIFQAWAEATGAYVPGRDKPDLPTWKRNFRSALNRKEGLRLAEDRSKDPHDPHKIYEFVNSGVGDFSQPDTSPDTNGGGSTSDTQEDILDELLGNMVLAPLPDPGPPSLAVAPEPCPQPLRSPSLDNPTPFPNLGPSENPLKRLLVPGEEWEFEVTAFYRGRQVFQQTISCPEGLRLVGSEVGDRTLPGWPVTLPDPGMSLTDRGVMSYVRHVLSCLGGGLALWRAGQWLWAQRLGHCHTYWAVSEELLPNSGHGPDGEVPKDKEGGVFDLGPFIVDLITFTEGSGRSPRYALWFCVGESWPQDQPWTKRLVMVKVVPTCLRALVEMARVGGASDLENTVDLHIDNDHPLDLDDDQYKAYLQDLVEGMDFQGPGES
| Sequence | fitted relative affinity [z-score] |
| --- | --- |
| GACGGTTTGGGGTATCGGGACGTGCTA | 0.0269 |
| TTAGGTATCGACTATCGGTTTGTGCTA | 0.909 |
| TCCACTTTCTTTTGCTTGTTGTGCTAG | 1.85 |
| GACGATCTCAGTTTCTAGACGTGCTAG | 1.63 |
| GACGATATCAGACTGGAAACGTGCTAG | 0.513 |

Mixed results
| Molecule | target | test | system | setting | how to read | quantity | result |
| --- | --- | --- | --- | --- | --- | --- | --- |
| PhoQ, residues 284 288 289 292 302 303 TNSAEL | PhoP, residues 12 14 15 18 19 GQALL (Escherichia coli, UniProt P23836) | Sort-seq, refers to: YFP reporter | E. coli | PhoQ-PhoP variant library, added: 10 µM Mg2+ | baseline: high Mg2+ state, higher = stronger signaling | fold induction | 2.34 |

Some of these lines once more (study 2):
| Sequence | fluorescence intensity [a.u.] |
| --- | --- |
| CTTTCCCGATCTTTTCACGTGTCCTTAGCACATTTGGTCTTGATTCGCTTGACGCTGCTG | 13600 |
| CGGGGTTAAGTTTGTGCGGTGGGTGGCTTGCAGCAGGTCTTGATTCGCTTGACGCTGCTG | 4970 |
